Experimental data collected from several papers.
Each numbered part is a random draw from the data of one study; scales do not carry over between parts.

Block 1
Target: Protein max, full length (MAX, Homo sapiens, UniProt P61244-2, residues 1-151)
Method: protein-binding microarray
Molecule type: double-stranded DNA, one strand shown
Sample: in vitro
Concentration: not given
Notes: k-mer, scored over probes, only values ≥0.25
Direction: higher = stronger binding
Sequence	E-score
CCAAGACA	0.267
CATATGTA	0.276
ATGTGAGC	0.319
ACATGTGA	0.476
CGTGGTCA	0.398
CCACGCGC	0.462
CCTCCACG	0.318
CAGCCACG	0.346

Block 2
Target: Hepatocyte nuclear factor 3-alpha (Foxa1, Mus musculus, UniProt P35582, residues 1-468, full length assumed)
Method: EMSA with sequencing
Molecule type: double-stranded DNA, one strand shown
Sample: in vitro
Concentration: 10 and 20 nM
Notes: whole designed probe, mean of two concentrations, ends assumed
Relative to: negative control set to 0
Direction: higher = stronger binding
All sequences stand within: GTGAGCGGTGCCCATTGATGGGGAAC … TTTCACTGGGATCGTGGGGAC
Target sequence (chain): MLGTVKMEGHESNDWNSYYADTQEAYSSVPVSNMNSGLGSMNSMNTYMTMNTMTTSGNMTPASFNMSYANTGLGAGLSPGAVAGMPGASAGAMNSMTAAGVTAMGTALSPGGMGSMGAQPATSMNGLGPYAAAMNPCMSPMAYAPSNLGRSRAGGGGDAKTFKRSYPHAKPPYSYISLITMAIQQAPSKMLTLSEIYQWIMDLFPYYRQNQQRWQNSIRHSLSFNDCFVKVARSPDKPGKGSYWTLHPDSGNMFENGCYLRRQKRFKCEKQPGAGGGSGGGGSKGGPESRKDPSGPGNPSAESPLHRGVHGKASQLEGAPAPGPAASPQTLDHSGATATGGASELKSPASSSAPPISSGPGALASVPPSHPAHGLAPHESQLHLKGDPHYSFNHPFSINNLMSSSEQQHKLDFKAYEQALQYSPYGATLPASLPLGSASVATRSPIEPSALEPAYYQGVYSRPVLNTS
Sequence	normalised bound fraction [ratio]
CAGGACATAGCACACTTTTGAATTCATTTTACAACTATTTATTGAGTGCTTTTTATGTGCCAGATTCCCCCCAGCTCCCACTGGTGGTACAGTGTAATTTTAGCTGTGAAAACATGCACTTTTCTCAGCCTTCATTATCATTCTAGTGAAGGGGGCAGATGGTAAACAACTGAACAATTAAGTAATCTTGACA	0.152
ATCTTCCCCCTCTTCCTTGCCCCACCAGCTCACCTTCCCGGGTATATTGGAGATAGGAAATTAATATAAGCCGGCATTCGTTAACCCTCTTCACGCGCATACTGCTGTTTACTTTGGATCTAACATGGTCCTTTGGCGACGCCAGGCTCCGGGAGAGCAAAGCACCGTGTCAGGGCCATGATCCGGGGTGGCC	0.337
AGAGCAACTGACAATCTCACACATTGCTAATGGAATAGTGGGTTTGGTGACTTGGAAGTGGGATGTTGAGGGCTTCTTGAAGGTTTTATTCATGTTTACTTTAATTGCCAACATTAGTTCTTACATAGGTATTTTCACAAAATAATGTATTGAGCTGTATACTTACTATTTGTGTACTTTTTCTTAATGCATT	0.427
ATCTTCCCCCTCTTCCTTGCCCCACCAGCTCACCTTCCCGGGTATATTGGAGATAGGAAATTAATATAAGCCGGCATTCGTTAACCCTCTTCACGCGCATACTGCTGTTTGCTCTGGATCTAACATGGTCCTTTGGCGACGCCAGGCTCCGGGAGAGCAAAGCACCGTGTCAGGGCCATGATCCGGGGTGGCC	0.124
CAAGTTTGTGGTCCAGGAGCAACAGGTTATGCCATACAGCCTAGGTGTGTAGTAGGCTACACACCGTCTATGTTTGTGTTGTACACTCTACAATGTTTGCACAACCATGACTCATTGATGAAATCTTCTCAGAACATACCCCTGTTGTTAAGCGATACATGACTGTACTTTTTTTAAAAAGTCCAAGGATATA	0.438
GGAGCTAAAAATCAGCTTGTCTGAAAATTCTCATAAAATTTGCAAAACCCTGAAACTGAAAGTTCTGCAGTGCAGAGGCATTTCCATGCAATGTAAACAAGGTCAGTTAGGGCCTCTTGGAACTATGCTGGGATGGGGGCCACTGTCAGTCAAGCTACTGTTGGGCTTGGGATGAGGATGGAGGGAACTGACC	0.408
AAACAAGTTTTAAAATTACAAATGAATGCTCAAGAGGAGAACAAAGTTCTAGAGCCAGTTTTAAGGGTCAAATGGTAAACAAAAGGTCAAAAGGTAATCTAGCCCATATCTATGGTTTCAGCTAAGAGCTCAGAGGGGAGCTAGCTAGTTACTCATTATCGCAATGAATTAGCATAACACTAAGGAGAATTAC	0.311
TAAAAGCTGGTGAAATCTGAATAAGGTCTGTACCTGAGTTAAGAGGACTGTATCAATGACCATTTCCTGGTTTTGACAGTGTACTGTGGTTATGTAAATATGGTTATGTGTATGTATCACTGGGGAAGCTGGGGAAGCATACATGGGAACTTTATGACTGTGCAACGTCTTGTGAGTCAACTACCTCAAATTA	0.362

Other studies, line by line
Molecule type: peptide
Concentration: concentration not given
Molecule	tested on	test	test system	conditions	how to read	endpoint	result
KYLPNGDYI	HLA class I histocompatibility antigen, C alpha chain, allele C*04:01 (Homo sapiens, UniProt P10321)	peptide-MHC binding	–	–	–	binding	inactive
AAAVRKPIVLKR	Saccharomyces cerevisiae	peptide binding, yeast competitive growth sequencing	cyclin-Cln2 fusion strain	Cln2 background subtracted	direction not given	binding score	-0.459

For quick reference, copied from above (block 1):
Sequence	E-score
CCACGCGC	0.462
CAGCCACG	0.346
CCAAGACA	0.267
